Measured values from different studies.
Numbers after ± are the reported error.

SMILES	assay	system	conditions	measurement	value
O=C(Nc1nc2cccc(-c3ccc(CN4CCS(=O)(=O)CC4)cc3)n2n1)C1CC1	population PK model estimate	human	oral, dose not given	apparent central volume	104 L
CNC(=O)c1ccc(N2C(=S)N(c3ccc(C#N)c(C(F)(F)F)c3)C(=O)C2(C)C)cc1F	population PK final model	human, male	oral	apparent intercompartmental clearance	20.6 L/h
COc1cc(C(=O)NC2CCN(C)CC2)c(F)cc1Nc1ncc(C(F)(F)F)c(Oc2cccc3c2C(=O)N(C)C3)n1		human patients, plasma	oral, 10 mg single dose, geometric mean	apparent oral clearance CL/F	537 mL/min
NC(=S)NN=Cc1ncccc1N		human non-smokers, plasma	oral, geometric mean, total	apparent oral clearance	88 L/h
COc1cc2c(Nc3ccc(Br)cc3F)ncnc2cc1OCC1CCN(C)CC1		human patients, plasma	85 mg/m^2, day 42	apparent oral clearance	93 ± 36 mL/min/m²
COc1cc(Nc2ncc3c(n2)-c2ccc(Cl)cc2C(c2c(F)cccc2OC)=NC3)ccc1C(=O)O	population PK model	human cancer patients, plasma	oral	apparent intercompartmental clearance	7.53 L/h
Cn1cc(-c2cn3nccc3c(-c3cnn([C@]4(CC#N)C[C@@H](C#N)C4)c3)n2)cn1		healthy humans fasted, plasma	30 mg single dose, geometric mean	apparent volume Vz/F	903 L
C=C[C@@H]1C[C@]1(NC(=O)[C@@H]1C[C@@H](Oc2ncc(OC)c3ccc(Cl)cc23)CN1C(=O)[C@@H](NC(=O)OC(C)(C)C)C(C)(C)C)C(=O)NS(=O)(=O)C1CC1	population PK full model	human	oral, dose not given	apparent volume of distribution	78.2 L
Cc1cc(C)c(CNC(=O)c2cc(Cl)c3c(c2C)O[C@@](C)([C@H]2CC[C@H](N(C)C)CC2)O3)c(=O)[nH]1	population PK model	human	oral, dose not given	apparent peripheral volume V2/F	3670 L
NC(=O)N1c2ccccc2CC(=O)c2ccccc21	population PK modelling	human patients, plasma	oral, dose not given, weight-scaled, no back-conversion	apparent volume of distribution	20 L
O=C(O)CCC(=O)O.[2H]C([2H])([2H])Oc1cc(C)c2[nH]ccc2c1CN1CC[C@@H](C2CC2)C[C@H]1c1ccc(C(=O)O)cc1		healthy humans, fed	oral, 200 mg, single dose, high-fat meal	apparent volume of distribution (Vd/F)	66 L
Cl.[2H]C([2H])([2H])CC(=O)c1cnc(NC(=O)C2CC2)cc1Nc1cccc(-c2ncn(C([2H])([2H])[2H])n2)c1OC		human, non-fasted	oral, 60 mg once daily, day 14, multiple dose, tablet, geometric mean	apparent clearance	14.7 L/h
C[C@H](Cn1cnc2c(N)ncnc21)OCP(=O)(O)O	population PK model	human, plasma	oral, dose not given, simultaneous model bootstrap median	apparent volume of distribution	2380 L
Cn1nnc2c(C(N)=O)ncn2c1=O		human patients, plasma	with: talazoparib	apparent clearance CL/F	8.3 ± 5.4 L/h/m2
C[C@@H]1CCO[C@H]2Cn3cc(C(=O)NCc4ccc(F)cc4F)c(=O)c(O)c3C(=O)N12	population PK model	paediatric humans, plasma	oral, dose not given	apparent volume of distribution	13.6 L
C=CC(=O)Nc1cc(Nc2ncc(C(=O)OC(C)C)c(-c3cn(C)c4ccccc34)n2)c(OC)cc1N(C)CCN(C)C		healthy human volunteers	oral, capsule C vs capsules A and B	apparent oral clearance	111 L/h
C=CC(=O)N(C)CCOc1c(N)ncnc1-c1cc(F)cc(NC(=O)c2ccc(C3CC3)cc2F)c1C		human, whole blood	oral, 200 mg, single ascending dose	apparent clearance CL/F	343 L/h
Cc1cc(C)c(CNC(=O)c2cc(Cl)c3c(c2C)O[C@@](C)([C@H]2CC[C@H](N(C)C)CC2)O3)c(=O)[nH]1		human, plasma	oral, 200 mg, cycle 1 day 15, mean	apparent volume of distribution (unbound)	7130 L
NC[C@@]1(CC(=O)O)[C@@H]2CC[C@H]3C[C@@H]2[C@@H]1C3		human, moderate renal impairment, plasma	oral, 20 mg single dose, geometric mean	apparent volume of distribution	44 L

Some of these lines once more:
SMILES	assay	system	conditions	measurement	value
O=C(Nc1nc2cccc(-c3ccc(CN4CCS(=O)(=O)CC4)cc3)n2n1)C1CC1	population PK model estimate	human	oral, dose not given	apparent central volume	104 L
CNC(=O)c1ccc(N2C(=S)N(c3ccc(C#N)c(C(F)(F)F)c3)C(=O)C2(C)C)cc1F	population PK final model	human, male	oral	apparent intercompartmental clearance	20.6 L/h
COc1cc(C(=O)NC2CCN(C)CC2)c(F)cc1Nc1ncc(C(F)(F)F)c(Oc2cccc3c2C(=O)N(C)C3)n1		human patients, plasma	oral, 10 mg single dose, geometric mean	apparent oral clearance CL/F	537 mL/min
